Assay results collected from several papers.
Lines come from different studies, so protocols differ. “And” joins repeats or separate records; there may be more than shown. Numbers after ± are the reported error.
FFAR4: Free fatty acid receptor 4 (FFAR4, Homo sapiens, UniProt Q5NUL3)
UniProt Q5NUL3, sequence (whole entry, looked up): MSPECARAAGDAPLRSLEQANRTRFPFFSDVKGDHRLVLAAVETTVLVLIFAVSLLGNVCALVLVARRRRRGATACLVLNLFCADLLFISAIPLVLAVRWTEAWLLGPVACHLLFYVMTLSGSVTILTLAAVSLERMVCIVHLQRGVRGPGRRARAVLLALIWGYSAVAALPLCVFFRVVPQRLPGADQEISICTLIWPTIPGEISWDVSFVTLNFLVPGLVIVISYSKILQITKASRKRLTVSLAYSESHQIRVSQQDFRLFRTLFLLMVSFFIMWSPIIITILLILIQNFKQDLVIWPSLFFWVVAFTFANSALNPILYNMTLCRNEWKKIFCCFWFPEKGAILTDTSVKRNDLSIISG
Trypanothione synthetase: Trypanothione synthetase (Trypanosoma brucei brucei, UniProt Q8IEX1)
CHRM2: Muscarinic acetylcholine receptor M2 (CHRM2, Homo sapiens, UniProt P08172)
UniProt P08172, sequence (whole entry, looked up): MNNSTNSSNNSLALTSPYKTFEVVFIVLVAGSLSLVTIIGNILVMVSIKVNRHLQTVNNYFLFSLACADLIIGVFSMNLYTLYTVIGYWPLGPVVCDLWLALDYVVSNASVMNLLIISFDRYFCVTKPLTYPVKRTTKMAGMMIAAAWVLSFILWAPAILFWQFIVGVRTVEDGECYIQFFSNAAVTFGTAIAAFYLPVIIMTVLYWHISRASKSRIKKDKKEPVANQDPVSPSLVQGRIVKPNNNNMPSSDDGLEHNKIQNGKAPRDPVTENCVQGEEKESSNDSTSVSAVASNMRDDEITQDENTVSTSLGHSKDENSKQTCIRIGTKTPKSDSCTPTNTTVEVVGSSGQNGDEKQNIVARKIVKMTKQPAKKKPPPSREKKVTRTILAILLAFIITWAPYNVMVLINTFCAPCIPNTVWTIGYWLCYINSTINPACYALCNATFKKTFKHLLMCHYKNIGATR
Alpha-amylase: Alpha-amylase (Bos taurus, UniProt Q3MHH8)
USP51: Ubiquitin carboxyl-terminal hydrolase 51 (USP51, Homo sapiens, UniProt Q70EK9)
UniProt Q70EK9, sequence (whole entry, looked up): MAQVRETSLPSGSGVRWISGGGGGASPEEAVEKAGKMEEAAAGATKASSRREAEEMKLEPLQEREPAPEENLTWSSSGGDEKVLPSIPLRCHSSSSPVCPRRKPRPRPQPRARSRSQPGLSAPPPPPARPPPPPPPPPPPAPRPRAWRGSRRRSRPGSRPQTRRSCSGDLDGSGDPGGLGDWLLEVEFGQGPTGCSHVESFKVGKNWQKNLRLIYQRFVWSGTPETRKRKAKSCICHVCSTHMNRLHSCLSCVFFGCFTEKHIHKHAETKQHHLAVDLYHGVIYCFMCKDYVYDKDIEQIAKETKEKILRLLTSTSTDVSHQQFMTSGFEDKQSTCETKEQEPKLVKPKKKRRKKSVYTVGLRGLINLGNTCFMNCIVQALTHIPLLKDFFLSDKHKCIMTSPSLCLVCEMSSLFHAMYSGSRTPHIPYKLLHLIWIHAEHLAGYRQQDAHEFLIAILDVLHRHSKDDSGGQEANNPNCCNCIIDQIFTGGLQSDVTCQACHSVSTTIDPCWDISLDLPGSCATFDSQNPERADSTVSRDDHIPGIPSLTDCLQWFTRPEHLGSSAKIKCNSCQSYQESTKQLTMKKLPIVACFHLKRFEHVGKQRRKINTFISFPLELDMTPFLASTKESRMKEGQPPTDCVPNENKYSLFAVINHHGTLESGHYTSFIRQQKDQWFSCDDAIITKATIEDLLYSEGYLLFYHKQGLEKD
UniProt P42684, sequence (whole entry, looked up): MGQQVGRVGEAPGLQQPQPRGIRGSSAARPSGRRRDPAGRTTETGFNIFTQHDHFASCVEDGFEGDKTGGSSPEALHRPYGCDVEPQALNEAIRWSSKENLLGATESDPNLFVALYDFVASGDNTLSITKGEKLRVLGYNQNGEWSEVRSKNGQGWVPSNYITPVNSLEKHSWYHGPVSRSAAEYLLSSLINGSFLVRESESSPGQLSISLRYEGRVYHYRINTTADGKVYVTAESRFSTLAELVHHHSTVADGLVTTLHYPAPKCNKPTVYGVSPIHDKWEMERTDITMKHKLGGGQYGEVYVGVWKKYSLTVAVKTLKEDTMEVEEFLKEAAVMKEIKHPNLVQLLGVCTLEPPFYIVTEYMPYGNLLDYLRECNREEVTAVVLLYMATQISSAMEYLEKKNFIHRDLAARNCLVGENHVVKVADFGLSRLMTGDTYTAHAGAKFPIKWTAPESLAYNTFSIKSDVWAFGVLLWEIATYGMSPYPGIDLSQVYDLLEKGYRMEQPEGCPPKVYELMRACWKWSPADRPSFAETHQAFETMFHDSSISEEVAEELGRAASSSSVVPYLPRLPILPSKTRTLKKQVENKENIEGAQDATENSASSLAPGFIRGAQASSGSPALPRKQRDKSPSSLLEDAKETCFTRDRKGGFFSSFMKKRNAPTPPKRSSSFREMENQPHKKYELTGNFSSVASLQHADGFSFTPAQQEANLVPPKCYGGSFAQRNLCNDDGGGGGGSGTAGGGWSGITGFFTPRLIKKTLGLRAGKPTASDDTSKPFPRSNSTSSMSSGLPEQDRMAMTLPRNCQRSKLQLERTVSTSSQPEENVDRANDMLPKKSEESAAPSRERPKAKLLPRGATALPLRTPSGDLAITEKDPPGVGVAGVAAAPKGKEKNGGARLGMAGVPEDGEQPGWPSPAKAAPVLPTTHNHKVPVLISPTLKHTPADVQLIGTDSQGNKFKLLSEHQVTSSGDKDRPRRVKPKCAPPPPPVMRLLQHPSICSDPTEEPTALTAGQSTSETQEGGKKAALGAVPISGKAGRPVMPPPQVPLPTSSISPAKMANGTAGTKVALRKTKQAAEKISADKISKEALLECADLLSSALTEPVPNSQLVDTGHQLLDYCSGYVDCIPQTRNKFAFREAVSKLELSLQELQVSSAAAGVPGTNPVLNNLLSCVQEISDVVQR
UniProt Q5TCX8, sequence (whole entry, looked up): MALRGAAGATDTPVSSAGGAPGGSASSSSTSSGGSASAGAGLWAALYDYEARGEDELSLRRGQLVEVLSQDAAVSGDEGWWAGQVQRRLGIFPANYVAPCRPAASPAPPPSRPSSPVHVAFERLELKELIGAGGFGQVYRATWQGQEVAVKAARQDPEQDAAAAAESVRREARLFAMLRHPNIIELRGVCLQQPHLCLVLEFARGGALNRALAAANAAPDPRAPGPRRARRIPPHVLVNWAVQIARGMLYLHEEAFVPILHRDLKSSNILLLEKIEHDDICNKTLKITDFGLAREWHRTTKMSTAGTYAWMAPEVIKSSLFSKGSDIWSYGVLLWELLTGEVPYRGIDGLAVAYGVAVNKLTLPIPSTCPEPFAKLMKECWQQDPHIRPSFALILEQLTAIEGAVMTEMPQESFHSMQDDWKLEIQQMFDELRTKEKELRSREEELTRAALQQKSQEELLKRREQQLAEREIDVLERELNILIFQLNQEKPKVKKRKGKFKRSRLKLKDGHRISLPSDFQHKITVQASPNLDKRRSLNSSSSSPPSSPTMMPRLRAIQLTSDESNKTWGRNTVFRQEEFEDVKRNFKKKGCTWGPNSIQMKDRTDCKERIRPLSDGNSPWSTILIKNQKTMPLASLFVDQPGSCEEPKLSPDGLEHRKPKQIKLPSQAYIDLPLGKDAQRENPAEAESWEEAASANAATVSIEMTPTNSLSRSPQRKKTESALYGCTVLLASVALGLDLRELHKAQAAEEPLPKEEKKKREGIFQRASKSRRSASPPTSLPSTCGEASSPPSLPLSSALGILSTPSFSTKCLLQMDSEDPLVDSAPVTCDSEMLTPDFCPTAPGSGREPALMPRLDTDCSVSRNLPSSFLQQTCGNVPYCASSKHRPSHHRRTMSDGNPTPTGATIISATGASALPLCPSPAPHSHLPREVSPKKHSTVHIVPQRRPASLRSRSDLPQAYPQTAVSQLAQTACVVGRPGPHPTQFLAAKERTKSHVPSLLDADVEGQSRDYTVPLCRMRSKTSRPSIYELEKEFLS
UniProt P35367, sequence (whole entry, looked up): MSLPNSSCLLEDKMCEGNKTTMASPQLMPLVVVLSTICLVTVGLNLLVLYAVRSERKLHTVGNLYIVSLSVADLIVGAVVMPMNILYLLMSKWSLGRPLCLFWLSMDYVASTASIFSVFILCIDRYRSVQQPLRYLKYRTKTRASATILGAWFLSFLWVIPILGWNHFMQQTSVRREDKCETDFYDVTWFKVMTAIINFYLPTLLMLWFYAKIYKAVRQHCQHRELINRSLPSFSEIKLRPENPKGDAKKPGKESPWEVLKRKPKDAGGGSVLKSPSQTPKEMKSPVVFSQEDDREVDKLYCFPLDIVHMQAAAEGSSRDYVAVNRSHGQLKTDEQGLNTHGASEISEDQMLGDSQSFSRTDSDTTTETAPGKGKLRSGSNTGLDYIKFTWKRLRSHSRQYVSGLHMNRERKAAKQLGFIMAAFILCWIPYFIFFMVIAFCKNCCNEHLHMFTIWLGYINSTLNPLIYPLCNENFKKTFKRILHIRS

For `CCCCCCN(C)c1cc(=O)[nH]c(=O)[nH]1`, the inhibition was 16 ± 13% (FFAR4; antagonist, β-arrestin recruitment; CHO cells; 10 µM, with: 4 µM TUG-891).
The inhibition of `Cn1cncc1C1=CN(c2ncnc3[nH]cnc23)CCS1` is reported as 30.5% (Protein kinase C gamma type (PRKCG, Homo sapiens, UniProt P05129); enzyme activity; 0.05 µM).
`O=c1cc(NCc2ccccc2)[nH]c(=O)[nH]1` has an inhibition of 37 ± 5% (FFAR4; antagonist, β-arrestin recruitment; CHO cells; 10 µM).
`O=C(CN1C(=O)Cc2c([nH]c3ccc(Br)cc23)-c2ccc(Cl)cc21)NC(CO)(CO)CO` has an inhibition of 12.6 ± 7% (Trypanothione synthetase; enzyme activity, inhibitor, BIOMOL Green; 30 µM).
The inhibition of `Cc1ccc(CCNc2cc(=O)[nH]c(=O)[nH]2)cc1` is reported as 15 ± 6% (FFAR4; antagonist, β-arrestin recruitment; CHO cells; 10 µM, with: 4 µM TUG-891).
With `CCN1/C(=C/C(C)=O)Sc2ccc(F)cc21` the inhibition was 0% (CHRM2; 10 µM).
The inhibition of `CC(C)CCNc1cc(=O)[nH]c(=O)[nH]1` is reported as 24 ± 8% (FFAR4; antagonist, β-arrestin recruitment; CHO cells; 10 µM).
`COc1cc(C(=O)OCCCN2CCCN(CCCOC(=O)c3cc(OC)c(OC)c(OC)c3)CC2)cc(OC)c1OC` has an inhibition of 81.4% and 81.6% (Equilibrative nucleoside transporter 2 (Homo sapiens, UniProt Q14542); nucleoside transport, inhibitor; MDCKII cells expressing ENT2; 25.1 µM, with: adenosine).
`CC1=NN(c2ccccn2)C(=O)C1=NNc1ccc(S(N)(=O)=O)cc1` has an inhibition of 11.1% (Alpha-amylase; enzyme activity, inhibitor, glucose oxidase; 50 µg/mL, with: dextrin).
`CNCc1cc(-c2ccccc2F)n(S(=O)(=O)c2cccnc2)c1` gave an inhibition of 8% (Na+/K+-ATPase (pig); enzyme activity; cerebral cortex; 10 µM).
The inhibition of `Cc1cc(-c2ccnc3[nH]cc(F)c23)cc(F)c1[C@@]1(O)[C@H](C)CN(C2CCS(=O)(=O)CC2)C[C@@H]1C` is reported as 40.6% (Rho-associated protein kinase 1 (ROCK1, Homo sapiens, UniProt Q13464); ATP probe binding, KiNativ; HEK293T cell lysate; 10 µM).
With `CC[C@@H]1[C@H](F)C(=O)N[C@@H]1COc1nccc2cc(C(N)=O)c(OC)cc12` the inhibition was 2% (Mitogen-activated protein kinase kinase kinase 21 (MAP3K21, Homo sapiens, UniProt Q5TCX8); ATP-site probe binding, ActivX profiling, refers to: MLK4; THP-1 cell lysate; 0.04 mM, Lys2 site).
Under inhibition, `Nc1nc(=O)n([C@H]2C[C@H](O)[C@@H](CO)O2)cc1CSCC[C@H](N)C(=O)O` is recorded as “no inhibition” (DNA (cytosine-5)-methyltransferase 3B (DNMT3B, Homo sapiens, UniProt Q9UBC3); enzyme activity, inhibitor; 100 µM, with: DNMT3L).
`CC1=NN(c2ccccc2)C(=O)C1=NNc1ccc(S(N)(=O)=O)cc1` has an inhibition of 27.4% (Alpha-amylase; enzyme activity, inhibitor, glucose oxidase; 500 µg/mL, with: dextrin).
With `O=Nc1c(NCCc2ccccc2)[nH]c(=O)[nH]c1=O` the inhibition was 19 ± 8% (FFAR4; antagonist, β-arrestin recruitment; CHO cells; 10 µM, with: 4 µM TUG-891).
With `CCc1oc2ccccc2c1C(=O)c1cc(Br)c(O)c(Br)c1` the inhibition was 69.5% and 61.8% and 72.5% (Solute carrier family 22 member 12 (SLC22A12, Homo sapiens, UniProt Q96S37, T217A); uric acid uptake; HEK293T transfected with SLC22A12 T217A; 0.5 µM, 10 min, 37 °C, with: [14C]urate 200 µM).
`CCCOC(=O)c1cc(O)c(O)c(O)c1` has an inhibition of 75% (USP51; inhibitor; 1 µM, 1 h preincubation, with: Ub-AMC 250 nM).
`Cn1cc(-c2cnc3ccc(NC(=O)Nc4ccc(F)c(Br)c4)cc3n2)cn1` gave an inhibition of 11% (Mitogen-activated protein kinase kinase kinase 12 (MAP3K12, Homo sapiens, UniProt Q12852); kinase binding, KiNativ profiling, refers to: Lys2 peptide; PANC-1 lysate; 1.25 µM).
For `Cc1nn(-c2nc3c(F)cc(F)cc3s2)c(O)c1C(c1ccccc1C(F)(F)F)c1c(C)nn(-c2nc3c(F)cc(F)cc3s2)c1O`, the inhibition was 90.1% (Cyclic GMP-AMP synthase, catalytic domain; with DNA (CGAS, Homo sapiens, UniProt Q8N884); cGAS phase separation, inhibitor; 100 µM).
`O=c1cc(NCCc2cccc(Cl)c2)[nH]c(=O)[nH]1` has an inhibition of 7 ± 5% (FFAR4; antagonist, β-arrestin recruitment; CHO cells; 10 µM).
With `O=C(CN1C(=O)Cc2c([nH]c3ccc(Br)cc23)-c2ccc(Cl)cc21)NC1=NCCS1` the inhibition was 41.3 ± 5.6% (Trypanothione synthetase; enzyme activity, inhibitor, BIOMOL Green; 30 µM).
For `OCCCN1CC[C@@H]2C[C@H]1c1cc(-c3ccc(C(F)(F)F)cc3)ccc12`, the inhibition was under 50% (Histamine H1 receptor (HRH1, Homo sapiens, UniProt P35367); radioligand binding, PDSP competition binding; 10 µM).
For `CC1=NNC(=O)C1=NNc1ccc(S(N)(=O)=O)cc1`, the inhibition was 12.9% (Alpha-amylase; enzyme activity, inhibitor, glucose oxidase; 50 µg/mL, with: dextrin).
For `[2H]c1cc(C)c(NC(=O)c2cnc(Nc3cc(N4CCCCC4)nc(C)n3)s2)c(Cl)c1`, the inhibition was over 50% (Tyrosine-protein kinase ABL2 (ABL2, Homo sapiens, UniProt P42684); 0.0001 µM).
`CC1=NN(c2cccc([N+](=O)[O-])c2)C(=O)C1=NNc1ccc(S(N)(=O)=O)cc1` gave an inhibition of 10.4% (Alpha-amylase; enzyme activity, inhibitor, glucose oxidase; 200 µg/mL, with: dextrin).
The inhibition of `O=C(Nc1cccc2c(=O)cc(-c3nnn[nH]3)oc12)c1ccc(OCCCCc2ccccc2)cc1` is reported as 74.2% and 80.5% and 66.8% and 60.2% and 59.4% (Volume-regulated anion channel subunit LRRC8C, part LRRC8A IL1 chimera (LRRC8C, Homo sapiens, UniProt Q8TDW0, E6A); ion current, inhibitor, whole-cell patch clamp; HCT LRRC8-/- cells; 1 µM, -100 mV).
`O=c1ccc2ccc(O)c(O)c2o1` has an inhibition of 73% (USP51; inhibitor; 1 µM, 1 h preincubation, with: Ub-AMC 250 nM).
For `CC1=NN(c2ccc(C)cc2)C(=O)C1=NNc1ccc(S(N)(=O)=O)cc1`, the inhibition was 31.7% (Alpha-amylase; enzyme activity, inhibitor, glucose oxidase; 500 µg/mL, with: dextrin).
The inhibition of `O=c1cc(NCCCOc2ccccc2)[nH]c(=O)[nH]1` is reported as 16 ± 6% (FFAR4; antagonist, β-arrestin recruitment; CHO cells; 10 µM).
`CC(C)(C)NC(=O)CN1C(=O)Cc2c([nH]c3ccc(Br)cc23)-c2ccc(Cl)cc21` gave an inhibition of 10.9 ± 6.8% (Trypanothione synthetase; enzyme activity, inhibitor, BIOMOL Green; 30 µM).
With `CC1=NCCNC(=O)C1=NNc1ccc(S(N)(=O)=O)cc1` the inhibition was 9.5969 ± 0.000227% (Alpha-amylase; enzyme activity, inhibitor, glucose oxidase; 10 µg/mL, with: dextrin).
`O=C(NO)c1ccc(CN2CCCCc3ccccc32)c(F)c1` gave an inhibition of -40.8% (CHRM2; radioligand binding, radioligand displacement; 10 µM).
`Cn1cc(-c2ccc(-c3cncc(Cl)c3N3CCC4(CCNC4=O)CC3)cc2)cn1`: “log2 fold change” 1.65 (COLO 205; gene expression, microarray, refers to: ATF3 mRNA; concentration not given, 2 h; relative to: untreated cells).
`O=c1cc(NCCCCCCO)[nH]c(=O)[nH]1` has an inhibition of 13 ± 1% (FFAR4; antagonist, β-arrestin recruitment; CHO cells; 10 µM, with: 4 µM TUG-891).
`O=C(O)C1=CC(=C(c2ccc(O)c(C(=O)O)c2)c2ccc(O)c(C(=O)O)c2)C=CC1=O` gave an inhibition of 30% (Catenin beta-1, armadillo repeat domain (Mus musculus, UniProt Q02248); luminescence; 20 µM).
